Results collected from several papers.
A part holds a random share of what one study measured. Values joined by “and” are separate records of one study, mostly repeats; a detail may differ. Positions count from the first letter of the parent shown.
UniProt O43683, sequence (whole entry, looked up): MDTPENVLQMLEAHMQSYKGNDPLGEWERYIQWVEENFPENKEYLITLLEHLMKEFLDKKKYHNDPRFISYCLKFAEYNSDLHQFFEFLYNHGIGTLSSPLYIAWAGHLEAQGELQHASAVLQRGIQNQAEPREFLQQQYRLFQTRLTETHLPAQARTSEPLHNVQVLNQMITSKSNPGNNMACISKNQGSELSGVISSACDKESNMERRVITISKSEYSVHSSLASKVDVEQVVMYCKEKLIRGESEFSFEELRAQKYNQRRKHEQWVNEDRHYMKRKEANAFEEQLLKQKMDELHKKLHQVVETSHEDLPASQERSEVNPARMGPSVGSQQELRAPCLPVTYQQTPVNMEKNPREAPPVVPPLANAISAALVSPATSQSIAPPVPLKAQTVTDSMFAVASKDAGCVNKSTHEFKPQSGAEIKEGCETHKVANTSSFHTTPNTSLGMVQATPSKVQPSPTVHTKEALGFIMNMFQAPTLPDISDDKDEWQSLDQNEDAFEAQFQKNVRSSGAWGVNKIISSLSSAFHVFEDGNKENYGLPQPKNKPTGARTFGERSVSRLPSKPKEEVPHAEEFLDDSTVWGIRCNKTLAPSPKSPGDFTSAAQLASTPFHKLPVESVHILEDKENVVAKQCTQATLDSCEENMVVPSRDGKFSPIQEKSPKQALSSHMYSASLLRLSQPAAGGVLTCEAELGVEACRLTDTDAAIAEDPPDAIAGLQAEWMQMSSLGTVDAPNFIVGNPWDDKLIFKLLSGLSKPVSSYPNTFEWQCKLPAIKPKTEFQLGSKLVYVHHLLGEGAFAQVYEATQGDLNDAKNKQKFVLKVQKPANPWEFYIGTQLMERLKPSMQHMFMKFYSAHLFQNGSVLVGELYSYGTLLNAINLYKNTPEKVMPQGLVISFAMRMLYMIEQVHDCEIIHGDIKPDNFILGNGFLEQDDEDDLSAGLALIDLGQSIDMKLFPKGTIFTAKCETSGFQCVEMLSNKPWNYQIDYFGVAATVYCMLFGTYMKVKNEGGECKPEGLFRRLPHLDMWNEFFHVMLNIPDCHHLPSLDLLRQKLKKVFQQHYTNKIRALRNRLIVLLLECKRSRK
UniProt Q14004, sequence (whole entry, looked up): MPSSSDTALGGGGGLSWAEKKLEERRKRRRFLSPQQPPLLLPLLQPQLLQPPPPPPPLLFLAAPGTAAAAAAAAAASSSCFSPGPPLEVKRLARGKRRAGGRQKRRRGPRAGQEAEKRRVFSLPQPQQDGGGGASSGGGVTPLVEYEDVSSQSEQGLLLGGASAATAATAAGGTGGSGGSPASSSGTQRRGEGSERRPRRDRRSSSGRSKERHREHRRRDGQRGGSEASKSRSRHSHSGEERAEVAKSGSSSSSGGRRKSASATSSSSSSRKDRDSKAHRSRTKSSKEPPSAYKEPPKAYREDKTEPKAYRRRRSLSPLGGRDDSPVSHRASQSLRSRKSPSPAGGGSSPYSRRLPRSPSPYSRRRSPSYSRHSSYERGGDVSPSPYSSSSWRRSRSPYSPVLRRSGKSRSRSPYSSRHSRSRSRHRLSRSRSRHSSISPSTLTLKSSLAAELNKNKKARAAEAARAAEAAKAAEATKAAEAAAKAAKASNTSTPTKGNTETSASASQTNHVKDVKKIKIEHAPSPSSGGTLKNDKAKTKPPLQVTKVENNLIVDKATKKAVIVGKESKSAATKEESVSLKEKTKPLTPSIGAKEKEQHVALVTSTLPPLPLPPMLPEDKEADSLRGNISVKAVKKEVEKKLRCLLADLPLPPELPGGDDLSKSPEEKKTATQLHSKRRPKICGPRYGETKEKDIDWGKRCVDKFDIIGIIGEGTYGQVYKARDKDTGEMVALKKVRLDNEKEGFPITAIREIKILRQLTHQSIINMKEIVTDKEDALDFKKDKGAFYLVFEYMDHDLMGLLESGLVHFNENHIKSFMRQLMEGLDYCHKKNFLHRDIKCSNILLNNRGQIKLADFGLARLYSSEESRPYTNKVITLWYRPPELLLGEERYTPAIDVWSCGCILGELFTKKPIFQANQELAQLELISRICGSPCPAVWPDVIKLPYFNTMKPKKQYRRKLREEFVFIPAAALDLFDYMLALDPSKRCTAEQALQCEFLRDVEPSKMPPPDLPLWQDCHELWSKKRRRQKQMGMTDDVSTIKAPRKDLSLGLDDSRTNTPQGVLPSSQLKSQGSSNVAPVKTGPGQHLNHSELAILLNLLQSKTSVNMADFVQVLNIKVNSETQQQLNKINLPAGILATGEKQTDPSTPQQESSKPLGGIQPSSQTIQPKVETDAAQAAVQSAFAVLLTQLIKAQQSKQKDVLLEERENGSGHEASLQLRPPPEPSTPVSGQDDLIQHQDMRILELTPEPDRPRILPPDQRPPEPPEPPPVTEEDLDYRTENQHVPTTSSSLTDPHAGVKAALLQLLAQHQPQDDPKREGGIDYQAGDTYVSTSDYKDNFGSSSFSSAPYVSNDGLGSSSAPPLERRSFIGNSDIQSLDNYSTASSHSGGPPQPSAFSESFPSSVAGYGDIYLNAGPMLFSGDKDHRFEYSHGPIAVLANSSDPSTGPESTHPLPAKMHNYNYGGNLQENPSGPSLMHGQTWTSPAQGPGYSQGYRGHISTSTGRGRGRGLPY
UniProt Q99640, sequence (whole entry, looked up): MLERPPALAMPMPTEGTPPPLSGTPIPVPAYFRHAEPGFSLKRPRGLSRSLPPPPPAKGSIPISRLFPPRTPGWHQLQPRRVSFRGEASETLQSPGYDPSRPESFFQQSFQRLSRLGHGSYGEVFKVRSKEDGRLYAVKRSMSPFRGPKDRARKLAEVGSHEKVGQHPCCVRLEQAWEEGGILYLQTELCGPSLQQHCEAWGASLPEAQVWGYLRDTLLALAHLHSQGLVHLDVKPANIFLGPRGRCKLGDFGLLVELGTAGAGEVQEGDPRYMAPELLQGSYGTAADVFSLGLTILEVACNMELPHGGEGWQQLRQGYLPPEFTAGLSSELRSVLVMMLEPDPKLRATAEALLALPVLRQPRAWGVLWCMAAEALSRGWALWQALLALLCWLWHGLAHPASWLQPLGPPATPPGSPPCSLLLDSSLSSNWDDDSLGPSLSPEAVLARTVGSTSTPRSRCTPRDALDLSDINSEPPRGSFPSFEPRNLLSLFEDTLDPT
UniProt P27037, sequence (whole entry, looked up): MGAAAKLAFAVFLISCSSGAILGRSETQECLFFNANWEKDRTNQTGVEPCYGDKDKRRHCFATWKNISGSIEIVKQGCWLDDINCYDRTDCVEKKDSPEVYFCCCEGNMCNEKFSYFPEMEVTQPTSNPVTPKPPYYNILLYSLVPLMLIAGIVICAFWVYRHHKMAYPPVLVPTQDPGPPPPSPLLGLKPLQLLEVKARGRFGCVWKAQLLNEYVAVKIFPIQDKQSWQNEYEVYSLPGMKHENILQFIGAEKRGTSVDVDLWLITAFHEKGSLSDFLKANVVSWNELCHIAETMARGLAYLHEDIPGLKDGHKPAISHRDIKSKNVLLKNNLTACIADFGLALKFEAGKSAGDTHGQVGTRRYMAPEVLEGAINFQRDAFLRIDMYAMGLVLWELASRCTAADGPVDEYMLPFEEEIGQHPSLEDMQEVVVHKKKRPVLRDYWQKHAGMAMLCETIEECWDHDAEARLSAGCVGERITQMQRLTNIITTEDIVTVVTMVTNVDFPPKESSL
UniProt P22607, sequence (whole entry, unmodified, looked up): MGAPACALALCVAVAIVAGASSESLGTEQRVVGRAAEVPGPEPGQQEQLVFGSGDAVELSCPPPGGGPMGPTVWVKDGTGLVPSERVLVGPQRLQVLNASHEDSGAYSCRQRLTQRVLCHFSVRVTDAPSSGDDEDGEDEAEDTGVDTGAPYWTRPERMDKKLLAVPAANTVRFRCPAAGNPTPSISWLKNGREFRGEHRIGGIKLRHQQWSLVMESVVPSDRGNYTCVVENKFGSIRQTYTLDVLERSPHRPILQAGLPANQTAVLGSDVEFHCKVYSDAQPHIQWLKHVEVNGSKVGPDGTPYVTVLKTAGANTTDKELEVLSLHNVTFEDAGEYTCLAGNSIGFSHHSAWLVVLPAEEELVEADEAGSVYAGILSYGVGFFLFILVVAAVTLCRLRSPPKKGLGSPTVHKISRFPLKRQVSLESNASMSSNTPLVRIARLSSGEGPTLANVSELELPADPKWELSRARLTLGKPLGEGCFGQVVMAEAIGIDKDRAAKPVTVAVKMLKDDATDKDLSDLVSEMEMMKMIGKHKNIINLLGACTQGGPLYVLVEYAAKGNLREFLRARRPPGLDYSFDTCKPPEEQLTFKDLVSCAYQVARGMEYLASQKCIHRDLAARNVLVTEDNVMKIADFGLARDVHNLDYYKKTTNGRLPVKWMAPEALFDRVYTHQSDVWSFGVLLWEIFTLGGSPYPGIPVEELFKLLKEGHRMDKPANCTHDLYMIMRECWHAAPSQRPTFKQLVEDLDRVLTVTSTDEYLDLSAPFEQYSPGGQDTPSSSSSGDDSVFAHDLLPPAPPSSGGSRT
UniProt P48729, sequence (whole entry, looked up): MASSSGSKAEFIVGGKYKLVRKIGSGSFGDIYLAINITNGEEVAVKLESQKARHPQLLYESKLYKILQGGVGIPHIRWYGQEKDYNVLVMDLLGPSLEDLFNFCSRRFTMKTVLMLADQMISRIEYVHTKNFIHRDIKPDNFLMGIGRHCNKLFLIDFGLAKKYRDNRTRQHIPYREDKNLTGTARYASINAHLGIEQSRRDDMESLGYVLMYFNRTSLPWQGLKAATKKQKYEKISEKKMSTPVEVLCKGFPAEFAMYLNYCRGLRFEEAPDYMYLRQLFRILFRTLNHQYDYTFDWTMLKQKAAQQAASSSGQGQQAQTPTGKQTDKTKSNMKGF

Set 1 — concentration: 1 µM; measurement: remaining binding
SMILES: CCS(=O)(=O)c1cc2cc(C[C@@](O)(CC(C)(C)c3ccc(F)cc3C(N)=O)C(F)(F)F)[nH]c2cn1
target = Fibroblast growth factor receptor 3 (FGFR3, Homo sapiens, UniProt P22607, G697C); read-out = cell-free assay; technique = competition with immobilised ligand; value = 100%
target = Receptor-type tyrosine-protein kinase FLT3 (FLT3, Homo sapiens, UniProt P36888, R834Q); read-out = cell-free assay; technique = competition with immobilised ligand; value = 78%
target = Receptor-type tyrosine-protein kinase FLT3 (FLT3, Homo sapiens, UniProt P36888, N841I); read-out = cell-free assay; technique = competition with immobilised ligand; value = 100%
target = Serine/threonine-protein kinase MRCK gamma (CDC42BPG, Homo sapiens, UniProt Q6DT37); technique = competition binding; value = 96%
target = Glycogen synthase kinase-3 beta (GSK3B, Homo sapiens, UniProt P49841); read-out = cell-free assay; technique = competition with immobilised ligand; value = 90%
target = Cyclin-dependent kinase 13 (CDK13, Homo sapiens, UniProt Q14004); read-out = cell-free assay; technique = competition with immobilised ligand; value = 91%
target = Activin receptor type-2A (ACVR2A, Homo sapiens, UniProt P27037); read-out = cell-free assay; technique = competition with immobilised ligand; value = 94%
target = Membrane-associated tyrosine- and threonine-specific cdc2-inhibitory kinase (PKMYT1, Homo sapiens, UniProt Q99640); read-out = cell-free assay; technique = competition with immobilised ligand; value = 67%
target = Serine/threonine-protein kinase Chk1 (CHEK1, Homo sapiens, UniProt O14757); read-out = cell-free assay; technique = competition with immobilised ligand; value = 100%
target = Casein kinase I isoform alpha (CSNK1A1, Homo sapiens, UniProt P48729); read-out = cell-free assay; technique = competition with immobilised ligand; value = 86%
target = Mitotic checkpoint serine/threonine-protein kinase BUB1 (BUB1, Homo sapiens, UniProt O43683); read-out = cell-free assay; technique = competition with immobilised ligand; value = 66%
target = Receptor-type tyrosine-protein kinase FLT3 (FLT3, Homo sapiens, UniProt P36888, D835H); read-out = cell-free assay; technique = competition with immobilised ligand; value = 100%

Set 2 — target: CCNA1, cyclin fold, Cln2 fusion (human); technique: yeast growth competition, sequencing; medium: yeast; notes: weak parent motif; baseline: not given; reading: higher = stronger binding; measurement: normalised enrichment score
Starting sequence: RBL1 docking peptide (human); GSAKRRLFGEDPP
Variant = L7E; value = 0.221
Variant = A3F; value = 0.54
Variant = D11Q; value = 0.459
Variant = L7T; value = 0.0439
Variant = P13Y; value = 0.315
Variant = S2M; value = 0.627
Variant = S2P; value = 0.413
Variant = D11F; value = 0.244

Set 3 — technique: PRP chromatography estimate; medium: 1,9-decadiene/PBS; pH: 7.4; measurement: logD
SMILES = CC(C)C[C@@H]1NC(=O)[C@H](CC(C)C)NC(=O)[C@H](CC(C)C)NC(=O)[C@@H](C)NC(=O)[C@H](C(C)C)NC(=O)[C@H](C)NC(=O)[C@H](C)NC1=O; value = -2.63
SMILES = CC(C)C[C@@H]1NC(=O)[C@H](Cc2cscn2)NC(=O)[C@H](CCC(=O)N2CCCC2)NC(=O)[C@H](CC(C)C)NC(=O)[C@@H](CCC(=O)N2CCCC2)NC(=O)[C@H](CC(C)C)NC(=O)[C@@H](CC(C)C)NC1=O; value = -1.29
SMILES = CC(C)C[C@@H]1NC(=O)[C@@H](C)NC(=O)[C@H](C)NC(=O)[C@@H](C(C)C)NC(=O)[C@H](C(C)C)NC(=O)[C@H](CC(C)C)NC(=O)[C@@H](CC(C)C)NC1=O; value = -1.18
SMILES = CCC[C@H]1NC(=O)CSC[C@@H](C(=O)OCC)N(C)C(=O)[C@H](CC(C)C)NC(=O)[C@@H](C)N(C)C(=O)[C@@H](CC(C)C)NC(=O)[C@H](C)N(C)C(=O)[C@H]2CCCN2C(=O)[C@H](CC(C)C)NC(=O)CN(C)C1=O; value = -0.0604

Set 4 — cell line: mouse MPNST tumor cells; technique: high-content immunofluorescence imaging; refers to: nuclear SOX9; concentration: 10 µM; time: 12 h; notes: mean of 2 replicates; baseline: DMSO control; reading: higher = more nuclear SOX9; measurement: nuclear SOX9 intensity
SMILES = NC[C@H]1O[C@H](O[C@H]2[C@H](O[C@@H]3O[C@H](CO)[C@@H](O)[C@H]3O)[C@@H](O)[C@H](N)C[C@@H]2N)[C@H](N)[C@@H](O)[C@@H]1O; value = 113 % of DMSO
SMILES = CCc1nc(N)nc(N)c1-c1ccc(Cl)cc1; value = 104 % of DMSO and 124 % of DMSO
SMILES = COc1ccc(-n2c(SCc3nc(-c4ccc(C)cc4)no3)nnc2-c2ccncc2)cc1; value = 87 % of DMSO
SMILES = NS(=O)(=O)c1cc(C(=O)O)cc(N2CCCC2)c1Oc1ccccc1; value = 91.6 % of DMSO

Further values, each from its own experiment
SMILES = CCOC(=O)c1c(NC(=O)CCC(=O)N(CC)CC)sc2c1CC(C)(C)OC2; species = mouse; medium = microsomes or S9; concentration = 2 µM; time = 0.5 h; measurement = remaining compound; value = 0.845%
